Results collected from several papers.
A part holds a random share of what one study measured.

Block 1
Target: RING finger protein unkempt homolog, zinc fingers 1-6, GST-SBP tag (UNK, Homo sapiens, UniProt Q9C0B0, residues 30-357)
Method: RNA Bind-n-Seq
Molecule type: RNA
Medium: in vitro
Tested at: not given
Notes: RNA with constant flanks, human-mouse chimeric sites, ends assumed
Baseline: input RNA pool
Direction: higher = stronger binding
Residues (chain): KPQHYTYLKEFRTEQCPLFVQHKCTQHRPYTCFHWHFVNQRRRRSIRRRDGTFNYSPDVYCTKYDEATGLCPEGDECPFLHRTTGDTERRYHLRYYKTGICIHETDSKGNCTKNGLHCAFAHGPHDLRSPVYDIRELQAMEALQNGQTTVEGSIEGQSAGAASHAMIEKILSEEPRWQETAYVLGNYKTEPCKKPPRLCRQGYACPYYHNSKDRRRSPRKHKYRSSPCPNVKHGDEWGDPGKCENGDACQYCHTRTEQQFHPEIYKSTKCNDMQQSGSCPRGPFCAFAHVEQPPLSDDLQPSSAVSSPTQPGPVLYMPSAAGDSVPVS
`GGGAGUUCUACAGUCCGACGAUCACUCUUGACUCUUUCCAUUCUCGUCCCUUCCCUCUUGAUAUUCAAGGCCAUGAAUCCCAAAAUAACAGUCUUAGUGGCUAGCACCCAAACAGAGGUGGAAUAAAUCCACCCCAGUGUCUCCAACAGAGGAUUGAGCAUCA` gave a bound/input enrichment of 0.524 ratio.
The bound/input enrichment of `GGGAGUUCUACAGUCCGACGAUCCGCAGAAGGUUAAAGGGUGAGAGUGGGGUGGAAGACUGUGUCAUGGCUCUGGAGACACUGUUCAGUGUCCUGCUUUCUCUGUGCAGACUGAUGGCCCCUUACACGCCCUUUCUGACUGAGCAACAGAGGAUUGAGCAUCA` is reported as 0.0482 ratio.
With `GGGAGUUCUACAGUCCGACGAUCUUACCCGAGAACGAGGAUGAGCUGGAGAGCACCAACAGGCGCUACACCAAGAGGGACUGUAGCACUUUCCUCAGAACUAGUGAGACGGGCAUCGUGGACCAGGUCAUGGUAACUCUCAACCAACAGAGGAUUGAGCAUCA` the bound/input enrichment was 0.201 ratio.
`GGGAGUUCUACAGUCCGACGAUCAGAAUCUGUGACUGGCUUUACUUAAUUGGUCAUUGAUAGCUUAACAAACAUGGAGAUAAGAUUAGAAAUCUUGACAUCAACAGGUAUCAAGCAGAAAAAACCAUGGCCACGUGUCUCCUGCAACAGAGGAUUGAGCAUCA` gave a bound/input enrichment of 0.156 ratio.

Block 2
Target: RNA binding protein fox-1 homolog 2, RRM domain, GST-SBP tag (RBFOX2, Homo sapiens, UniProt O43251-10, residues 100-194)
Method: RNA Bind-n-Seq
Molecule type: RNA
Medium: in vitro
Tested at: 365 nM
Notes: natural RNA segment, single round, ends assumed
Baseline: no-protein control
Direction: higher = stronger binding
Shared flanks, not repeated: GGGAGUUCUACAGUCCGACGAUC … UGGAAUUCUCGGGUGCCAA
Target sequence (chain): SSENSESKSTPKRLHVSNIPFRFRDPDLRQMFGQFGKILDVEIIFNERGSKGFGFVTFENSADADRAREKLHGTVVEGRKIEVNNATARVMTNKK
Under “RBNS enrichment (R)”, `UUUUUAUUUAUUUUUUGUUAGGAAUUGGCCAAGAUCGCUAUGGAAAAAAUAAAAGAACAAACACAUAAAAAGGCUGAAGUCUCUCUUCCUUUUUCCCUUCCCUAUUUGUG` is recorded as 1.49.
`UUCCCUGAGGGUCCUCAGGGUGGAGGACAGGUUUGGCCCAGAAAGACUAGCCAGAGGCCUGAUGGUCCCAGGUGGCUCUGGAUAUACUUUGGAUAUGGAUUUAAAUGGUC` — result for “RBNS enrichment (R)”: 0.248.
For `ACACUACAUAGAAAGAGGCCCUAUAAACUCAAAAAGUCAUUGGGAAACUUAAAGUCUAUUCUACUUUGCAAGAGGAGAAAUGUGUUUUAUGAACGAUAGAUCACAUCAGA`, “RBNS enrichment (R)” read 0.326.
`AGGAAUUUGAACCAUAAAACACUAUCUGAUGCACAGAACACCUCUACUUUGAGACUCACCUCUCAUAAAGCUUCUUUUUCACAUUACUGUUAAAGACCAGACGUUCUAGA`: “RBNS enrichment (R)” 0.361.
`CUGACACGUCCUCUCUGGCCGCCAUCCGGCUCGCACAGGGGCCUCCCAGCGCCUCAGGCCCCGCGUUUGUGUCUGGAGUCUCCCCCCGGGGAGAGGACACUGGCCCCUCG`: “RBNS enrichment (R)” 0.36.

Block 3
Target: Interferon regulatory factor 5, full length, phosphomimetic (IRF5, Homo sapiens, UniProt Q13568-2, residues 1-514, S451D/S453D/S456D/S462D)
Method: protein-binding microarray
Molecule type: double-stranded DNA, one strand shown
Medium: in vitro
Tested at: 940 nM top
Notes: 60-bp whole probe
With: salmon DNA 0.4 mg/ml
Baseline: random background probes
Direction: higher = stronger binding
For `GCCTAGCACTTTTCATTTTTTTTCATCATGTGCTAGGTCTTGATTCGCTTGACGCTGCTG`, “fitted relative affinity” read 2.43 z-score.
Under “fitted relative affinity”, `GCCTAGCACCTACTTCTCTTTTTGCTTTCGTGCTAGGTCTTGATTCGCTTGACGCTGCTG` is recorded as 2.56 z-score.
`GCCTAGCACTTAGATTTCGGGCCTGGATTAGTGCTAGTCTTGATTCGCTTGACGCTGCTG` — result for “fitted relative affinity”: 0.332 z-score.
`GCCTAGCACAAGTTTACCCATCTCCAGTAGTGCTAGGTCTTGATTCGCTTGACGCTGCTG` — result for “fitted relative affinity”: 0.617 z-score.

Single results of other studies
`PhoQ, residues 284 288 289 292 302 303 TVTVVA` gave a fold induction of 3.68 (PhoP, residues 12 14 15 18 19 SEGLL (Escherichia coli, UniProt P23836); Sort-seq, item: YFP reporter; E. coli; PhoQ-PhoP variant library, with: 10 µM Mg2+; baseline: high Mg2+ state, higher = stronger signaling).

A few entries again (block 3):
Under “fitted relative affinity”, `GCCTAGCACCTACTTCTCTTTTTGCTTTCGTGCTAGGTCTTGATTCGCTTGACGCTGCTG` is recorded as 2.56 z-score.
